Measurements from different studies.
Compare with care: the assays were run in different laboratories. ± gives the spread as reported.
Cell line: Caco-2

NC1=N[N+](=Cc2c3ccccc3cc3ccccc23)[Ga-3]23([S]1)([S]C(N)=N[N+]2=Cc1c2ccccc2cc2ccccc12)[S]C(N)=N[N+]3=Cc1c2ccccc2cc2ccccc12  IC50 (72 h): 4.7 µM
O=C(/C=C(O)/C=C/c1cccs1)/C=C/c1cccs1  IC50 (cell growth or viability, MTT; 72 h): 42 µM
C=CCOC(=O)[C@]12CS[C@H](c3ccccc3)N1C(=O)/C(=C(\O)CCc1ccccc1)C2=O  IC50 (cell viability, Alamar Blue): 7.81 µg/mL
O=C(O)CNc1nc(Cl)nc(NNC(=O)c2ccc(Nc3nc(Nc4ccc(C(=O)NNc5nc(Cl)nc(NCC(=O)O)n5)cc4)nc(Nc4ccc(C(=O)NNc5nc(Cl)nc(NCC(=O)O)n5)cc4)n3)cc2)n1  IC50 (cell growth or viability, MTT; 72 h): 0.0547 µM
COC(=O)[C@]12CS[C@H](c3ccccc3)N1C(=O)/C(=C(\O)CCc1ccccc1)C2=O  IC50 (cell viability, Alamar Blue): 31.3 µg/mL
Oc1ccccc1-c1nn(-c2ccccn2)[n+](-c2ccccc2)n1  IC50 (cell growth, resazurin): 29 ± 3 µM
O=C(O)CNc1nc(NNC(=O)c2ccc(Nc3nc(Nc4ccc(C(=O)NNc5nc(NCC(=O)O)nc(N6CCCCC6)n5)cc4)nc(Nc4ccc(C(=O)NNc5nc(NCC(=O)O)nc(N6CCCCC6)n5)cc4)n3)cc2)nc(N2CCCCC2)n1  IC50 (cell growth or viability, MTT; 72 h): 0.042 µM
CC(=O)OC[C@H]1O[C@@H](n2cc(CSc3nc4ccccc4n3Cc3cn([C@@H]4O[C@H](COC(C)=O)[C@@H](OC(C)=O)C(OC(C)=O)[C@H]4OC(C)=O)nn3)nn2)[C@H](OC(C)=O)C(OC(C)=O)[C@@H]1OC(C)=O (stereo in doubt)  IC50 (cell growth or viability, MTT): 7.9 µg/mL
CC(C)OC(=O)[C@]12CS[C@H](c3ccccc3)N1C(=O)/C(=C(\O)CCc1ccccc1)C2=O  IC50 (cell viability, Alamar Blue): 15.6 µg/mL
CN(C)C(=S)N(C)N=Cc1ccccc1SSc1ccccc1C=NN(C)C(=S)N(C)C  IC50 (cell proliferation, MTT; 72 h): 0.38 ± 0.06 µM
Oc1ccc(Br)cc1C=NNC(=S)Nc1ccccc1  IC50 (cell growth, MTT; 72 h): 4.5 ± 0.1 µM
O=C(CNc1nc(O)nc(NNC(=O)c2ccc(Nc3nc(Nc4ccc(C(=O)NNc5nc(O)nc(NCC(=O)NO)n5)cc4)nc(Nc4ccc(C(=O)NNc5nc(O)nc(NCC(=O)NO)n5)cc4)n3)cc2)n1)NO  IC50 (cell growth or viability, MTT; 72 h): 0.0346 µM
c1ccc(-c2nn(-c3nc4ccccc4s3)[n+](-c3ccccc3)n2)cc1  IC50 (cell growth, resazurin): 40 ± 3 µM
COC(=O)C1CN1S(=O)(=O)c1ccc2c(C=O)c(N(C)C)ccc2c1 (stereo not drawn)  IC50 (cell growth or viability, MTT; 48 h): 11 µM
C[S+](C)([O-])[Pt-2]([Cl])([Cl])[N+](=Cc1ccc[nH]1)Cc1ccccc1  IC50 (cell growth or viability, MTT; 24 h): 16.6 µg/mL
CCOC(=O)c1ccc(NC(=O)C(C#N)=C2C(=O)c3ccccc3C2=O)cc1  IC50 (cell viability; 24 h): 37.3 ± 2.4 µM
Oc1ccccc1-n1nc(-c2ccccc2)n[n+]1-c1ccccc1  IC50 (cell growth, resazurin): 250 ± 80 µM
O=C(CNc1nc(NNC(=O)c2ccc(Nc3nc(Nc4ccc(C(=O)NNc5nc(NCC(=O)NO)nc(N6CCCCC6)n5)cc4)nc(Nc4ccc(C(=O)NNc5nc(NCC(=O)NO)nc(N6CCCCC6)n5)cc4)n3)cc2)nc(N2CCCCC2)n1)NO  IC50 (cell growth or viability, MTT; 72 h): 0.039 µM
[Cl][Pd-2]1([Cl])[N+](=Cc2ccc[nH]2)Cc2cccc[n+]21  IC50 (cell growth or viability, MTT; 24 h): 15.8 µg/mL
CC(=NNC(N)=S)c1ccc2ccccc2c1.CC(=NNC(N)=S)c1ccc2ccccc2c1.[Cl][Cu][Cl]  IC50 (cytotoxicity, MTS; 72 h): ~1 µM
O=C(O)CNc1nc(NNC(=O)c2ccc(Nc3nc(Nc4ccc(C(=O)NNc5nc(NCC(=O)O)nc(N6CCOCC6)n5)cc4)nc(Nc4ccc(C(=O)NNc5nc(NCC(=O)O)nc(N6CCOCC6)n5)cc4)n3)cc2)nc(N2CCOCC2)n1  IC50 (cell growth or viability, MTT; 72 h): 0.0268 µM
